Measured values pooled from the literature.
Numbered parts are unrelated; each lists some results of a single study. Substitutions count along the parent as printed.
Chain of UniProt P00519 (whole entry, unmodified, looked up): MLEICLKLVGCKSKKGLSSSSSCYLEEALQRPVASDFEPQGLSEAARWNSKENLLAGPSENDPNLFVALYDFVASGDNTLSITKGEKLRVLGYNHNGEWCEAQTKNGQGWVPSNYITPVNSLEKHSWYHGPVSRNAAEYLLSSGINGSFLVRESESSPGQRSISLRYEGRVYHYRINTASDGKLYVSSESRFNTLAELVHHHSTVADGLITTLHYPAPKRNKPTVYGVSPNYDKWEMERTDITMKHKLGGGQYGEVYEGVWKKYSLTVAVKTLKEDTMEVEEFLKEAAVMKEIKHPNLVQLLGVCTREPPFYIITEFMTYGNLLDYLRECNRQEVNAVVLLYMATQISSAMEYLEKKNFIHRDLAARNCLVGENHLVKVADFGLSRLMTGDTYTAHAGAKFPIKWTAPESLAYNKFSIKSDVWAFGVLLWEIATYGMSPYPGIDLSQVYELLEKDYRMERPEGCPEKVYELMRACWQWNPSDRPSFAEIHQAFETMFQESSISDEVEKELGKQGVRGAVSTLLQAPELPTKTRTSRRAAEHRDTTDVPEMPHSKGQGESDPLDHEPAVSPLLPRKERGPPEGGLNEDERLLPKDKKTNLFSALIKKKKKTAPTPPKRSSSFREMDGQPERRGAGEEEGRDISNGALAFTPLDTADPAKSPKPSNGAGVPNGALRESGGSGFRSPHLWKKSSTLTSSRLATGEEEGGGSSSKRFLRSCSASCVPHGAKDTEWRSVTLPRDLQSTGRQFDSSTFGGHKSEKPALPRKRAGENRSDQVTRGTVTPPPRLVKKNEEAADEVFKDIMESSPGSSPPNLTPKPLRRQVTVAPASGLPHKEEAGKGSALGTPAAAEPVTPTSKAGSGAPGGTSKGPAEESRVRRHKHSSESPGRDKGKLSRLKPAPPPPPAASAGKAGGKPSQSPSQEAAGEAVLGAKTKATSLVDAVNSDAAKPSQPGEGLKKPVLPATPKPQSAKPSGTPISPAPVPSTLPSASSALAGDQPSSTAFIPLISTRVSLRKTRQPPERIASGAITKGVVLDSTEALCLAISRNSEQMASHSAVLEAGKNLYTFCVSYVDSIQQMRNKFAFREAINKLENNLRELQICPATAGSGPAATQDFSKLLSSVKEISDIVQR
Chain of UniProt Q13976 (whole entry, looked up): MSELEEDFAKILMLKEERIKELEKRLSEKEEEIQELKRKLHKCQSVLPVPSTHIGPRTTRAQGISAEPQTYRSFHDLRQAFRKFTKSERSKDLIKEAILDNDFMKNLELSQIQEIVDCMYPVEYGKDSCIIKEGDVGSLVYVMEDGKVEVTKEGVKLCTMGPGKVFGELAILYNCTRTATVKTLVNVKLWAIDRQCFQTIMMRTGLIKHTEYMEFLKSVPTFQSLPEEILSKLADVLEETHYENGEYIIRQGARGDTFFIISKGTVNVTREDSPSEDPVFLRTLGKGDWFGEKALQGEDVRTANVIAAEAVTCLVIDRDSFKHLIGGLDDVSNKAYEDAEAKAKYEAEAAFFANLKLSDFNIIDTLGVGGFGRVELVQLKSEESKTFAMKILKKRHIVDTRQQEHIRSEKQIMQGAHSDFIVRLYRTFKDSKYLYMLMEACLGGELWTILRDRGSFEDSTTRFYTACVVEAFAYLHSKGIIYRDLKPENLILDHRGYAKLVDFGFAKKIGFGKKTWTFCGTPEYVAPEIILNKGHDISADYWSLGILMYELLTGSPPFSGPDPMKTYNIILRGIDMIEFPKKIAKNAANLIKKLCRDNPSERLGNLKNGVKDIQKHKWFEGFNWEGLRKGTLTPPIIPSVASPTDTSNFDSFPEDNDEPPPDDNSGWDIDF

Sample 1
Target: ABI1, truncated, D143A, DHFR fusion (Arabidopsis thaliana, UniProt P49597)
Method: DHFR PCA, dose-response
Matrix: yeast
Notes: Hill fit, mean, not affinity
With: (+)-ABA, dose series
Direction: lower = more sensitive
Starting sequence: PYL1, truncated, DHFR fusion (Arabidopsis thaliana, UniProt Q8VZS8); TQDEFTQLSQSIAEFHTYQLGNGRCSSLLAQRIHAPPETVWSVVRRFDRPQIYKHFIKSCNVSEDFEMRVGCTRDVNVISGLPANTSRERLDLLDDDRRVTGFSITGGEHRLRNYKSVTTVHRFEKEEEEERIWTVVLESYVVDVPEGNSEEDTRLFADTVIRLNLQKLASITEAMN
Change | ABA EC50
S117T | 312 µM
S27V | 911 µM
F5K | 7.11 µM
D3W | 3.36 µM
V62T | 3.61 µM
E67K | 2.61 µM
L112M | 5.99 µM
V143Y | 485 µM

Sample 2
Target: RNA binding protein fox-1 homolog 2, RRM domain, GST-SBP tag (RBFOX2, Homo sapiens, UniProt O43251-10, residues 100-194)
Method: RNA Bind-n-Seq
Molecule type: RNA
Matrix: in vitro
Concentration: 365 nM
Notes: natural RNA segment, single round, ends assumed
Baseline: no-protein control
Direction: higher = stronger binding
All sequences stand within: GGGAGUUCUACAGUCCGACGAUC … UGGAAUUCUCGGGUGCCAA
Construct (chain): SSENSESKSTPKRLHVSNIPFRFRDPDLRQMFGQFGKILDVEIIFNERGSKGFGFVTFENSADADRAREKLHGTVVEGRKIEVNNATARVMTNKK
Sequence | RBNS enrichment (R)
UACAUAAAAGGAAGGUAUUGGCUGAACUGAAUAGAGGUCUUGAUCUUUGGAAUGCAUGCCAGUAAUGUAUUUUACAGUACAUGUUUAUUAUGUUCAAUAUUUGUAUUUGU | 0.876
CUGAGGCAGAAGGAGGUGAGCACUUAAUCCUUUGAGCCAUGCGGUCUCUUUUACAGUCUAGAAACUGUACAUAUAUGUGAAAAGGAAAAAAAACCCUAUAUAUAUAUAUU | 0.967
CUGUUGCUGGCUUACAGUUUCUCUGUGUGCUUUGUGGUUGCUGUCAUAUUUGCUCUAGAAGAAAAAAAAAAAAGGAGGGGAAAUGCAUUUUCCCCAGAGAUAAAGGCUGC | 0.479
CUCUGCUAAGGUUCCUUCCCUUUGUCUCUGGAAACCCAACCCCACAAGGACAGAGUGGUGAGAACUCCUUCCUGGGAGGAGAUAAGGAGAUAUAAACCUUUAAAUAAAGU | 0.439
GGAAGCCGGGUCUUGCGAGCUGGAGAAAUGGACUGGAUGAGGGCUCUAGGGGUGGGCUGUUUACACACUCCAGGAAUCUAGGGGUCGGUGUCUCCUUCCUGGAGAGGCUA | 0.976
UAUUUGUAUUUAAAAUAACUAUUAAAUGAGCAUUUUGCACAUGGGCCCACAGUGUCCUGUUGGCCAGCGGGGUUCACGGCUAGUGUCUGGAAGCCUGCUGGCCUCGGGUA | 0.644
GCAGCCUGUCUCCUGUUUUGAGCCCUUUAGGGGUAACUCAUUUGUAAAACCACCAGCCUGAGCUCAAGGAUGAGGCCACAGGGCUCUGGUGGACUUCAAAUCCCAGCUUU | 1.14
ACAUUUGAAACAAGCUAACCCUGGGGAGUCUAUGGUCUCUUCACUCAGGUCUCAGCUAUAAUUCUGUUAUAUGAGGGGCAGUGGACAGUUCCCUAUGCCAACUCACGACU | 0.268

Further values, each from its own experiment
Baseline: control
SMILES | target | assay | conditions | measurement | value
CNC(=O)Nc1ccc2c(c1)C1(CC2)OC(=O)N(CC(=O)N(Cc2ccc(F)cc2)[C@@H](C)C(F)(F)F)C1=O (single isomer, unassigned) | ABL1 (Homo sapiens, UniProt P00519, E255K) | KINOMEscan | 1 µM, E255K mutant, phosphorylated | remaining binding | 100%
O=C1NC(=O)C(c2c[nH]c3ccccc23)=C1c1c[nH]c2ccccc12 | cGMP-dependent protein kinase 1, isoform beta (PRKG1, Homo sapiens, UniProt Q13976) | enzyme activity, inhibitor | 0.5 µM | remaining activity | 82.4%

For quick reference, copied from above (sample 2):
Sequence | RBNS enrichment (R)
GGAAGCCGGGUCUUGCGAGCUGGAGAAAUGGACUGGAUGAGGGCUCUAGGGGUGGGCUGUUUACACACUCCAGGAAUCUAGGGGUCGGUGUCUCCUUCCUGGAGAGGCUA | 0.976
UACAUAAAAGGAAGGUAUUGGCUGAACUGAAUAGAGGUCUUGAUCUUUGGAAUGCAUGCCAGUAAUGUAUUUUACAGUACAUGUUUAUUAUGUUCAAUAUUUGUAUUUGU | 0.876
CUGAGGCAGAAGGAGGUGAGCACUUAAUCCUUUGAGCCAUGCGGUCUCUUUUACAGUCUAGAAACUGUACAUAUAUGUGAAAAGGAAAAAAAACCCUAUAUAUAUAUAUU | 0.967
